Results pooled from the literature.
Protocols differ between the studies behind these lines. ± gives the spread as reported.
SLC10A2: Ileal sodium/bile acid cotransporter (SLC10A2, Homo sapiens, UniProt Q12908)

Compound	target	assay	system	conditions	scale	measurement	result
O=C(CCCCCCNc1ccc(C(=O)Nc2ccc(Cl)c(NC(=O)c3cccc(Cl)c3)c2)cn1)NO	Protein smoothened (SMO, Homo sapiens, UniProt Q99835, W535L)	Smo ciliary translocation	NIH3T3 expressing SMO-EYFP	added: Shh-N or SAG 100 nM	–	ciliary accumulation	no effect
O=C(Nc1cc(C(=O)Nc2ccc(S(=O)(=O)O)cc2)cc(C(=O)Nc2ccc(S(=O)(=O)O)cc2)c1)Nc1cc(C(=O)Nc2ccc(S(=O)(=O)O)cc2)cc(C(=O)Nc2ccc(S(=O)(=O)O)cc2)c1	Neutrophil elastase (ELANE, Homo sapiens, UniProt P08246)	enzyme activity, inhibitor, chromogenic substrate hydrolysis	–	pH 7.4, 37 °C, 100 mM NaCl, added: substrate S-1384	–	maximal inhibition	104 ± 2.7%
[3H]C([3H])([3H])c1cnccc1CN1C[C@@H](c2cc(F)c(F)c(F)c2)CC1=O	SV2A (Homo sapiens, UniProt Q7L0J3)	radioligand binding	human Alzheimer disease, frontal cortex	–	baseline: P1 fraction over homogenate	specific binding ratio	~143 fold
CCc1nc2cc3ccccc3cc2cc1C(=O)N1CCC[C@H]1C(=O)N[C@@H](C/C=C\C[C@H](NC(=O)[C@@H]1CCCN1C(=O)c1cc2cc3ccccc3cc2nc1CC)C(=O)N[C@@H](CCCCN)C(=O)NCCCN)C(=O)N[C@@H](CCCCN)C(=O)NCCCN	(CCUG)10 RNA	SPR	–	–	–	residence time	745 s
CCC(=C(c1ccc(O)cc1)c1ccc(OCCN(C)CCOCCOCCOCCOCCN(C)CCOc2ccc(C(=C(CC)c3ccccc3)c3ccc(O)cc3)cc2)cc1)c1ccccc1 (mixture of isomers)	ESR2 (Homo sapiens, UniProt Q92731)	radioligand competition binding	–	concentration not given, Z-E/E isomer form, added: [3H]estradiol tracer	baseline: estradiol	relative binding affinity	4.77 ± 1.5%
O=C(Nc1ccc(-c2nc(-c3ccccc3)cs2)cc1)C1CCN(Cc2cccnc2)CC1	Ephx2 (Mus musculus, UniProt P34914)	inhibitor, fluorescent substrate	–	concentration not given	–	activity	inactive
O=c1[nH]cnc2c(CN3C[C@H](O)[C@@H](O)C3)c[nH]c12	PNP (Homo sapiens, UniProt P00491)	isothermal titration calorimetry	–	concentration not given, pH 7.4, 27 °C, first subunit, added: 50 mM phosphate	–	binding enthalpy	-8.6 ± 1 kcal/mol
CCC(=O)N(C)c1ccc(Cl)c(Cl)c1	constitutive androstane receptor CAR3 (human)	activator, reporter gene	–	0.32 to 100 µM	–	CAR3 activation	no effect
N#Cc1c(N)nc(SCc2ncc[nH]2)c(C#N)c1-c1cccc(F)c1	ADORA1 (Homo sapiens, UniProt P30542)	cAMP, agonist	–	–	–	Emax	32%
CNC(=O)C(NC(=O)C1CN(C(=O)c2cnn(Cc3ccccc3)c2)CC12CN(C(=O)C1CC1(C)C)C2)C(C)OCCC1CCCCC1 (stereo not shown)	human cyclin E1 wild type:CDK2-NanoLuc	NanoBRET	HEK293T cell lysate	orthosteric site, added: tracer K-10 0.2 µM	–	tracer displacement	no effect
CCCCOc1ccc(C(=O)OCCN2CC=CCC2)cc1	CHRM1 (Homo sapiens, UniProt P11229)	recovery of [3H]NMS binding after washing	membranes	100 µM	–	dissociation half-time	0.4 ± 0.1 h
O=c1cc(-c2ccc(O)c(-c3c(-c4ccc(O)cc4)oc4cc(O)cc(O)c4c3=O)c2)oc2cc(O)cc(O)c12	PRXC1A (Armoracia rusticana, UniProt P00433)	oxidation, substrate	–	–	–	Km	164 ± 3.7 µM
O=C([O-])CN(CCN(CC(=O)[O-])Cc1cc(CCC(=O)NCCCCCC(=O)NCCCC[C@H](NC(=O)N[C@@H](CCC(=O)O)C(=O)O)C(=O)O)ccc1O)Cc1cc(CCC(=O)O)ccc1[O-].[68Ga+3]	FOLH1 (Homo sapiens, UniProt Q04609)	PET/CT	prostate cancer patients, bone metastases	60 min	baseline: lesion SUVmax over muscle SUVmean	mean tumour-to-background ratio	45.8
O=Cc1ccc(-c2cn([C@@H]3O[C@H](COP(=O)(O)OP(=O)(O)O[C@H]4O[C@H](CO)[C@H](O)[C@H](O)[C@H]4O)[C@@H](O)[C@H]3O)c(=O)[nH]c2=O)s1	ABO (Homo sapiens, UniProt P16442, G268A/L266G)	galactosyltransferase activity, substrate, HPLC	–	–	–	Km	< 0.4 µM
CC1=C(/C=C/C(C)=C\C=C\C(C)=C\C=O)C(C)(C)CCC1	Rhodopsin (RHO, Homo sapiens, UniProt P08100, T289P)	pharmacological chaperone, immunostaining, nonpermeabilized cells	661W	2.5 µM, 16 h	baseline: untreated cells	cell surface expression	~6 fold
COc1ccc(-n2nc3c4ccccc4[nH]cc-3c2=O)cc1	Gamma-aminobutyric acid receptor subunit alpha-6/beta-3, with gamma-2 subunit (Gabra6/Gabrb3, Rattus norvegicus, UniProt P30191+P63079)	ion current, modulator, two-electrode voltage clamp	Xenopus laevis oocytes	10 µM, α6β3γ2, added: GABA EC3-5	–	modulation	~700%
C[N+](C)(C)CCCOc1ccc2cc(CN)ccc2c1	Primary amine oxidase, liver isozyme (Bos taurus, UniProt Q29437)	substrate, fluorescence	–	pH 7.2, 30 °C	–	kcat	0.159 ± 0.002 s⁻¹
CC(=O)N[C@H](CCCNC(=N)N)C(=O)N[C@@H](Cc1ccc(O)cc1)C(=O)N[C@@H](CCCNC(=N)NC(=O)NCCCCN)C(=O)N[C@@H](CC(C)C)C(=O)N[C@@H](CCCNC(=N)N)C(=O)N[C@@H](Cc1ccc(O)cc1)C(N)=O	NPY4R (Homo sapiens, UniProt P50391)	β-arrestin-2 recruitment, agonist	HEK293T	concentration not given, unit not given	baseline: 1 µM human pancreatic polypeptide	intrinsic activity	0.56
O=c1c2sccc2n(CC2COc3ccccc3O2)c(=O)n1O (stereo not shown)	Flap endonuclease 1 (Homo sapiens, UniProt P39748, R100A)	inhibitor	–	100 µM, 37 °C, added: double-flap substrate DF1	–	maximal single-turnover rate	~0.0004 min⁻¹
C=CCCCCCCO[C@@H]1O[C@H](CO)[C@H](O)[C@H](O[C@@H]2O[C@H](CO)[C@H](O)[C@H](O)[C@H]2O[C@@H]2O[C@@H](C)[C@@H](O)[C@@H](O)[C@@H]2O)[C@H]1O	ABO (Homo sapiens, UniProt P16442, G235S/G268A/L266M/R176G)	methyl-TROSY NMR titration lineshape analysis	–	apo enzyme	–	koff	2600 ± 200 s⁻¹
Nc1nc2cc(CC[C@H]3C[C@@H](n4ccc5c(N)ncnc54)[C@H](O)[C@@H]3O)ccc2cc1Br	Protein arginine N-methyltransferase 5, with WDR77 (PRMT5, Homo sapiens, UniProt O14744)	inhibitor, RapidFire MS	–	added: MEP50	–	isomerisation rate constant k3	0.00047 s⁻¹
CCCNCC(=O)O	Albumin (ALB, Homo sapiens, UniProt P02768)	circular dichroism	–	0.6 mM	–	α-helix content	44.9%
Cc1ccc(NC(=O)CCC(NC(=O)CCC(C)C2CCC3C4C(O)CC5CC(O)CCC5(C)C4CCC23C)C(=O)O)c(C)n1 (stereo not shown)	SLC10A2	transport, substrate, LC-MS/MS	ASBT-MDCK cells	–	–	Kt	92.2 µM
O=P(O)(O)O[C@@H]1[C@@H](O)[C@H](O)[C@H](O)[C@H](O)[C@H]1OP(=O)(O)O	Inositol 1,4,5-trisphosphate-gated calcium channel ITPR1, N-terminal region (Itpr1, Rattus norvegicus, UniProt P29994, del318-332/R504Q)	[3H]IP3 competition binding	–	N-terminal fragment R504Q	–	Hill coefficient	0.9 ± 0.2
Cc1ccc(C)c2sc(NC(=O)C3CCN(S(=O)(=O)c4ccc(F)cc4)CC3)nc12	N-acyl-phosphatidylethanolamine-hydrolyzing phospholipase D (Homo sapiens, UniProt Q6IQ20)	activator	HepG2	added: flame-NAPE substrate	baseline: vehicle	Emax	1.6 fold
CC(Cc1ccc(Cl)cc1)=C(c1ccc(Cl)cc1)c1ccc(OCCN2CCOCC2)cc1	Estrogen receptor (ESR1, Homo sapiens, UniProt P03372)	reporter gene, agonist, yeast estrogen screen	–	1 µM	baseline: DMSO	fold activation	1.07 ± 0.16 fold
COc1ccc(NC(=O)CC[C@H](NC(=O)CC[C@@H](C)[C@H]2CC[C@H]3[C@@H]4[C@H](O)C[C@@H]5C[C@H](O)CC[C@]5(C)[C@H]4CC[C@]23C)C(=O)O)cn1	SLC10A2	transport	MDCK expressing ASBT	–	baseline: Ki over Kt	Ki over Kt	> 7 fold
[11CH3]Nc1ccc(-c2nc3ccc(O)cc3o2)cn1	APP (Homo sapiens, UniProt P05067)	binding, PET	Alzheimer's disease patients, anterior cingulate cortex	unit not given	baseline: control subjects	effect size of DVR	5.44

Excerpt of the above:
Compound	target	assay	system	conditions	scale	measurement	result
CCC(=C(c1ccc(O)cc1)c1ccc(OCCN(C)CCOCCOCCOCCOCCN(C)CCOc2ccc(C(=C(CC)c3ccccc3)c3ccc(O)cc3)cc2)cc1)c1ccccc1 (mixture of isomers)	ESR2 (Homo sapiens, UniProt Q92731)	radioligand competition binding	–	concentration not given, Z-E/E isomer form, added: [3H]estradiol tracer	baseline: estradiol	relative binding affinity	4.77 ± 1.5%
O=C(Nc1ccc(-c2nc(-c3ccccc3)cs2)cc1)C1CCN(Cc2cccnc2)CC1	Ephx2 (Mus musculus, UniProt P34914)	inhibitor, fluorescent substrate	–	concentration not given	–	activity	inactive
